Measured values from different studies.
Every numbered part comes from another study and shows a few of its results, in no order. Changes are numbered by the printed parent chain.

Set 1
Target: RING finger protein unkempt homolog, zinc fingers 1-6, GST-SBP tag (UNK, Homo sapiens, UniProt Q9C0B0, residues 30-357)
Chain of UniProt Q9C0B0 (30-357, looked up): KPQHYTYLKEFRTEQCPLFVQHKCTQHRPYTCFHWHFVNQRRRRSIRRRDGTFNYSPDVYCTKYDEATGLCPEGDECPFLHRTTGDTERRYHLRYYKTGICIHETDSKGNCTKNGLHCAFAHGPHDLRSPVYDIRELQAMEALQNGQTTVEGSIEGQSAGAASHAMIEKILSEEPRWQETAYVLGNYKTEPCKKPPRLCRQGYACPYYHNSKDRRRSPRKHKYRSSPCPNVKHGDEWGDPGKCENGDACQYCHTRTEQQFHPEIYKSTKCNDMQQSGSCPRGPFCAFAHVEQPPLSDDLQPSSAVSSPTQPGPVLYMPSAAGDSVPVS
Method: RNA Bind-n-Seq
Form: RNA
Medium: in vitro
Concentration: not given
Setting: RNA with constant flanks, ends assumed
Reference: input RNA pool
Direction: higher = stronger binding
All sequences stand within: GGGAGUUCUACAGUCCGACGAUC … CAACAGAGGAUUGAGCAUCA
| Sequence | bound/input enrichment [ratio] |
| --- | --- |
| AAAAGUGAGGAUUUGGGGAAAUCAUCAAGAUCGAAAACAGAGAGAGAUGAUAGAUAUUGCCGCUACUCAAAACUUGAACGAGAUACUCGGUAUGUAUCUUCCCGAUGUCGGUCCGAAAGA | 0.168 |
| AAGUGUCUUUUCAUUCAGGGAAAACUGUUGUUUGCCGAGCCCAAGGAUGCGGGCUUUCCAUUCCGCCAGGAUAUCAAUAGCCAUUUGGCCAGCCUCUCAAUGGCUAGAAACACGAGCCCC | 0.154 |
| UACUGUGACCUCCAGCAAGAACCCAAUGGUAUCACCGGAAUCCUGAAGUGGGUAAAACUGACCGACAACUUUGAAGGAGAAUACGACUACGUAACCAACGAGGGCACAGUGUUCACAUUC | 0.0616 |
| AUGGGCCUAUUUGUUUGGUGCUGGCACCAACUCGGGAACUGGCCCAACAGGUGCAGCAAGCCGCUGCUGAAUAUUGUAGAGCAUGUCGCUUGAAGUCUACUUGUAUCUACGGUGGUGCUC | 0.181 |
| CAGGAAUGCGGGGAGGCCUUUGCUCGUAGGUCUGAGCUCAUUGAGCACCAGAAGAUUCAUGACCGAGAAAGACCUUCUGGAAGCCGACAUUAUGAGCGCUCUGUCAUCCGCAGCCUUGCG | 0.129 |
| ACGAUCGGGGCCUAUAUCAACACAACGCACUCACGCCUCACACACAUCAGUCCUCGGCACUACCGCGAGUUUAUCGAGUUCCUCAGCAAGGCCCGAGAGACCUUCCUAAUGGCACACGAU | 0.161 |
| GAUUAUUUAUUCAAGUUACUUCUGAUUGGCGAUUCUGGGGUUGGAAAGUCCUGCCUUCUCCUCCGGUUUGCAGAUGAUACGUAUACGGAAAGCUACAUCAGCACAAUUGGUGUGGAUUUC | 0.216 |
| GCCAUCACGACACUGCAUAAUCUCCUGCUCCAUCAGGAAGGAGCUAAAAUGGCAGUGCGCCCCGCUGGUGGACUGCAGAAAAUGGUUGCUUUGCUCAACAAAACAAACGUGAAAUUCUUG | 0.0463 |

Set 2
Target: ABI1, truncated, D143A, DHFR fusion (Arabidopsis thaliana)
Method: DHFR PCA, deep sequencing
Medium: yeast
Setting: methotrexate growth selection, single substitutions
Together with: (+)-ABA 0.032 µM
Reference: wild-type fitted maximum
Direction: higher = stronger binding
Parent: PYL1, truncated, DHFR fusion (Arabidopsis thaliana); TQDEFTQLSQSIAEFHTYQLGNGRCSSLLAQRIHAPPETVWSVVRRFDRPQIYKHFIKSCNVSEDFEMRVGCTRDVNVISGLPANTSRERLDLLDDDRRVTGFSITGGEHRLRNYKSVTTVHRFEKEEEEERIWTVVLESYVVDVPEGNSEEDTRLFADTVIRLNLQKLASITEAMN; partner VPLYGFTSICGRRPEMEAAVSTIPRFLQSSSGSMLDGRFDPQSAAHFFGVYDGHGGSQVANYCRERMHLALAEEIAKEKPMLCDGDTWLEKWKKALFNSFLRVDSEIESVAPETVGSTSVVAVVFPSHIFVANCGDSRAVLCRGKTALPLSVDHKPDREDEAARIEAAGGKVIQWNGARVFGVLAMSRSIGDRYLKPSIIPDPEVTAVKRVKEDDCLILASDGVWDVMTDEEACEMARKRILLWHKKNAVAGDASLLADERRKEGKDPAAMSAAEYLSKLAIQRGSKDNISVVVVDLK
| Substitution | relative binding score |
| --- | --- |
| H34G | 2.26% |
| F56T | -3.87% |
| K58C | -4.79% |
| G23C | 4.63% |
| E129K | 20.9% |
| A35H | -8.5% |
| Y18W | 17.7% |
| R113S | 10.8% |
| L138R | 2.4% |
| F124N | -4.94% |
| R45G | -8.53% |
| S117L | 0.806% |
| V44H | -7.97% |
| I12N | -8.59% |
| S26L | -1.41% |
| L29N | -1.29% |
| H16E | 3.8% |
| S87M | 36.5% |
| T17H | -2.26% |
| V62Q | -8.26% |
| E109T | 8.22% |
| A35F | -6.62% |
| G81P | 36.7% |
| R90G | -3.75% |
| A84Y | 95.1% |

Set 3
Target: Fragile X messenger ribonucleoprotein 1, C-terminal low-complexity region (Fmr1, Mus musculus, UniProt P35922)
Method: RNA Bind-n-Seq
Form: RNA
Medium: in vitro
Concentration: 200 nM
Setting: whole 134-nt RNA, ends assumed
Together with: 150 mM KCl
Reference: input library
Direction: higher = stronger binding
All sequences stand within: GGGAGUUCUACAGUCCGACGAUC … UGGAAUUCUCGGGUGUCAAGG
| Sequence | log2 enrichment |
| --- | --- |
| CAAGUCCUGUGCUACACAUCGUAUGUACCGAAUCGGGGUUUGGGGAGGGGAGGGGAAAGUAUUAUGUUACGCCGUUCGGAUCUGCACUUC | 1.12 |
| ACCAUGCAAAAGGGCAUCUUUGGGAAGUGGGGCAAGGGGGGGAUAGGGAGGGGGGUAACACUUUGGGAACAGGUGGUCCCAGGUCGUUUC | 0.796 |
| CUCAAGUCCUGUGCUACACAUCGUAUGUACCGAAUCGGUUGGGUUGGGUUGGGGAAAGUAUUAUGUUACGCCGUUCGGAUCUGCACUUCC | 0.646 |
| CACAGACAACACGCACCCACACAGACACAGAGGGAAGGGGUUGGGAUGGGGACAGGGUGCAAAACAGGGCGGGGUAGGACCCCAGCCCCU | 1.17 |
| GGACACAGCUUGGGCUAUGGCUUUGUGAACUACGUGACCGCGAAGGAUGCAGAGAGAGCGAUCAACACGCUGAACGGCUUGAGGCUCCAG | -1.73 |
| GUCCUGUGCUACACAUCGUAUGUACCGAAUCGGAAAAAAGGGAAAAAAGGGAAAAAAGGAAAGUAUUAUGUUACGCCGUUCGGAUCUGCA | -0.897 |
| UGGUGUUCAUAUUGCUGAUGUGAGCCAUUUUAUUAGGCCAGGAAAUGCCUUGGAUCAAGAAUCAGCCAGAAGAGGAACAACUGUGUAUCU | -0.206 |
| AAGUCCUGUGCUACACAUCGUAUGUACCGAAUCGGGGUGGGGAGGGGAAAAAGGGGAAAGUAUUAUGUUACGCCGUUCGGAUCUGCACUU | 0.821 |
| CUGUGCUACACAUCGUAUGUACCGAAUCGGGAAAAAAAGGGAAAAAAAGGGAAAAAAAGGGAAAGUAUUAUGUUACGCCGUUCGGAUCUG | -1.05 |

Set 4
Target: CCNF, cyclin fold, Cln2 fusion (human)
Method: yeast growth competition, sequencing
Medium: yeast
Setting: strong parent motif
Reference: not given
Direction: higher = stronger binding
Parent: DTL docking peptide (human); PSSMRKICTYFHR
| Substitution | normalised enrichment score |
| --- | --- |
| PASMRKICTYFHR [S2A] | 1.53 |
| PSSMRKICTYFAR [H12A] | 1.91 |
| PSSMRAICTYFHR [K6A] | 1.99 |
| PSSMRKICAYFHR [T9A] | 1.3 |
| PSSMRKICTAFHR [Y10A] | 1.55 |
| PSSMRKACTYFHR [I7A] | 1.14 |
| PSSARKICTYFHR [M4A] | 1.54 |

Set 5
Target: Sal-like protein 4, full length isoform B (SALL4, Homo sapiens, UniProt Q9UJQ4-2, residues 1-616)
Method: universal PBM
Form: double-stranded DNA, one strand shown
Medium: in vitro
Concentration: not given
Setting: 8-mer, flanks averaged, mean of replicates
Direction: higher = stronger binding
| Sequence | E-score |
| --- | --- |
| CTAGGACC | -0.275 |
| GGACATCC | -0.221 |
| CAACGAGA | 0.13 |
| AGATCTAC | 0.114 |
| CGCGATTC | -0.176 |
| ATCCGTGA | -0.0602 |
| AGTTTATC | 0.159 |
| AATACTTA | 0.295 |
| GTATGCAC | 0.0882 |
| AATAGACG | 0.167 |
| ACGAAGAG | 0.109 |
| ACCGTGAC | -0.233 |
| TCACAGGA | 0.0731 |
| CTTGGCGC | -0.19 |
| CGCATTAG | -0.137 |
| AGCGCCAT | -0.269 |
| CGTCGGCC | -0.258 |
| CACAGCAC | -0.171 |
| TGATTTAA | 0.29 |
| CCATCGTC | -0.165 |
| AGAATAGG | 0.111 |
| CCTACTGA | -0.0797 |
| CCCACCTC | -0.202 |

Some of these lines once more (set 2):
| Substitution | relative binding score |
| --- | --- |
| R113S | 10.8% |
| L138R | 2.4% |
| F124N | -4.94% |
| R45G | -8.53% |
| S117L | 0.806% |
| V44H | -7.97% |
| I12N | -8.59% |
